Measurements collected from several papers.
Each numbered part is a random draw from the data of one study; scales do not carry over between parts.

Sample 1 — target: UBE2J1 UBC core domain (UniProt Q9Y385); technique: yeast two-hybrid; matrix: yeast; setting: mostly zero background; relative to: not given; reading: higher = stronger interaction
B1: RNF32 RING domain (UniProt Q9H0A6); chain SLLQGDSVQPCPICKEEFELRPQVLLSCSHVFHKACLQAFEKFTNKKTCPLCRKNQYQTRVIH
B2: TRIM15 RING domain (UniProt Q9C019); chain SLKVVHELPACTLCAGPLEDAVTIPCGHTFCRLCLPALSQMGAQSSGKILLCPLCQEEEQAETPMA
B3: UBE4A RING domain (UniProt Q14139); chain LQQQEEETYADACDEFLDPIMSTLMCDPVVLPSSRVTVDRSTIARHLLSDQTDPFNRSPLTMDQIRPNTELKEKIQRWLAERKQQKEQLE
B4: RFPL2 RING domain (UniProt O75678); chain MAALFQEASSCPVCSDYLEKPMSLECGCAVCLKCINSLQKEPHGEDLLCCCSSMVSRKNKIRR
B5: RNF150 RING domain (UniProt Q9ULK6); chain DKETESDFDNCAVCIEGYKPNDVVRILPCRHLFHKSCVDPWLLDHRTCPMCKMNILKALGIP
B6: PEX2 RING domain (UniProt P28328); chain DNTLATSGKECALCGEWPTMPHTIGCEHIFCYFCAKSSFLFDVYFTCPKCGTEVHSLQPLK
B7: TRIM3 RING domain (UniProt O75382); chain VQPMDKQFLVCSICLDRYQCPKVLPCLHTFCERCLQNYIPAQSLTLSCPVCRQTSILPEQGV
Target sequence (chain): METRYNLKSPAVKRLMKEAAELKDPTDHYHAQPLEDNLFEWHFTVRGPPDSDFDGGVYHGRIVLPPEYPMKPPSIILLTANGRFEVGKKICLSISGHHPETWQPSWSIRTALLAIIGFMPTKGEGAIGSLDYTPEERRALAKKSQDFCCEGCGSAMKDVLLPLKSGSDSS
Molecule | lacZ reporter activity
B1 (RNF32 RING domain) | 0
B2 (TRIM15 RING domain) | 0
B3 (UBE4A RING domain) | 0
SYEDKSNDFVCPICFDMIEEAYMTKCGHSFCYKCIHQSLEDNNRCPKCNYVVDNIDHLY (COP1 RING domain (UniProt Q8NHY2)) | 0
B4 (RFPL2 RING domain) | 0
B5 (RNF150 RING domain) | 0
B6 (PEX2 RING domain) | 0
LKQVSIRENCCSLCCDEVADTQLKPCGHSDLCMDCALQLETCPLCRKEIVSRIRQI (RSPRY1 RING domain (UniProt Q96DX4)) | 0
B7 (TRIM3 RING domain) | 0

Sample 2 — technique: RNA Bind-n-Seq; form: RNA; matrix: in vitro; concentration: 365 nM; relative to: no-protein control; reading: higher = stronger binding
Target: RNA binding protein fox-1 homolog 2, RRM domain, GST-SBP tag (RBFOX2, Homo sapiens, UniProt O43251-10, residues 100-194)
Setting: natural RNA segment, single round, ends assumed
Shared flanks, not repeated: GGGAGUUCUACAGUCCGACGAUC … UGGAAUUCUCGGGUGCCAA
Residues (chain): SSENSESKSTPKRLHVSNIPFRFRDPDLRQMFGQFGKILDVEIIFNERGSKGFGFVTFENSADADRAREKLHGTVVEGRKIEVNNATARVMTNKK
Sequence | RBNS enrichment (R)
CGUCCAGGUGACUGACUGGUUGCUCCUCCCCCUUGGCAUGUUUGCAGAUCCUCUCCUCAGUCCGUGAAUCAGCACAGCUUGGAUUGAGCUUUACAACUAACAGCGCGCUA | 0.339
GUUGCUUUGUUCAUAAUGUGGUUACAGUCAUAUUACACUGACCCUGAGGGUAUUAUGUAACCCUUCAGAAAACCACUUUGCCUCAUUGUGUUUCAGGAUUAACUUCUACA | 0.299
CUGUCUCAGGCCUCAAGCCAGGCACCCAUCUCUGGAUGCCAGUCUAUAGCGGGUACCAGAGGAAAGCUGGCAGCAGUAACUCUCUCCCCAUGCAUCCUAGCCAGUGAGUG | 0.306
UAGGAUAAGAAAUAAGAAUAAAGUACCUUGACUUUGUUCACAGCAUGUAGGGUGAUGAGCACUCACAAUUGUUGACUAAAAUGCUGCUUUUAAAACAUAGGAAAGUAGAA | 10.7
UAUUUUACAUUAAAGCUUAUUUUGGGGAGAUAUGAAGGUCAUCUUCAUAAAUACAUAACAACCCUCAAAAGUAUAUAGGUACUUUGUCUGAGAAACAUUGAAAGCAGGUU | 0.408
UAUUUCCAGCCACCUCCCAUCCCUUCUUCAAGCUUAGCCAGAUCCUAUCUCGCCCAGUGAAAUCACAGGAAGUUUAACGUAUCUCAGAGGCCUUUGAGUUCCCACUCAAU | 0.301
UAAAUCAUUUCAGUAUCCUCUCCAUCACAUGCCUGGCCCUUGCUCCCUUCAGCGCUAGACCAUCAAGUUGGCAUAAAGAAAAAAAAAUGGGUUUGGGCCCUCAGAACCCU | 0.438
UUUUCGGGAGUCAGGGGAGGAGAUGACUUUGCUUCUGUGCACAGCCCCGUCUUCCAGGAGCCACAACUCAGAAGAAAAGGGUGCUCAGACUUUUGUUAUACACAUUUGCU | 0.611
ACUUCUCUUUAUAGGUUUCAGGUCUCCUAUGGGUGCCUGGGAAGUCCUUGAAAGUGGACUGUUCUCAGGCUUGACCUGCCCCACCCCAUCCCCGCGGUUGAGGCUGUGGG | 0.255
CCCAAGAGAAGAGUGUACCAUGCACGUCUGCACCCCAGGCCCUUCCUGAGUCUUCAGGUGCACACAGCCUUCUUGUGGAGCUACUUUUGCAAAUAUUACAAGGUGGGGGG | 0.696
GGCCCUGCAAGCACAUCAUGACCCUUUCUGGCAGCCUCUUGGUGCUCUGGGUAGUGAGGGAUGACCAGUCUUGUCCUGAGAAAUGUUUCUCUUAGUCUUUAAGUUCAAAG | 0.252
ACCAACCUUACAACCACAAGGGGGAAGCAGAGAGUCAAGCAUGCAGACAGGCAGCUUUCCCAGCUGGUUAAAGAAGCUGGGCCCUUUUCCUCCCACACCCUGCCAGCCUU | 26.7

Sample 3 — technique: protein binding microarray; form: double-stranded DNA, one strand shown; matrix: in vitro; concentration: not given; relative to: not given; reading: higher = stronger binding
Target: Histone acetyltransferase KAT6A, both winged helices, GST fusion (KAT6A, Homo sapiens, UniProt Q92794, residues 1-181)
Setting: 8-mer, flanks averaged, mean of 2 arrays, mostly near background
Target sequence (chain): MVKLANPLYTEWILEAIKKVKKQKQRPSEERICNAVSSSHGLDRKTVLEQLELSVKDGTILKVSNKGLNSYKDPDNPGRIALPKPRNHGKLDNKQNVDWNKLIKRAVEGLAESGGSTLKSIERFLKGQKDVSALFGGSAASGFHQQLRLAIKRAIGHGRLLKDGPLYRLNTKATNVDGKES
Sequence | E-score
GCCTCTAA | -0.0625
CAGGTTTC | -0.151
GCATTGGC | 0.021
GGGAGAAC | -0.097
TACCTAGA | -0.202
CCAAGGAG | -0.177
AGGCCCAT | -0.126
ACCTGGAG | -0.181
GTTGTATA | 0.0609
ACCCAATC | -0.155
CGGGACAA | 0.192
CTTACATA | -0.109
TCCATTCA | -0.225
ATAGACAC | -0.136
AGTATTTG | -0.181
CTGCATAA | -0.188
ACAGCATC | -0.156
AGCGGGAC | 0.24
CCACGCAC | 0.198
AGCTAACG | -0.00386
GAACACAA | -0.205
ACATCCTG | 0.00184
CACCACAA | -0.0783
AAGTTCAT | -0.13
ACAAAAAG | -0.116

Sample 4 — technique: protein-binding microarray; form: double-stranded DNA, one strand shown; matrix: in vitro; concentration: 250 nM; setting: 60-bp whole probe; added: salmon DNA 0.4 mg/ml; relative to: random background probes; reading: higher = stronger binding; shared flanks, not repeated: GCCTAGCAC … GTCTTGATTCGCTTGACGCTGCTG
Target: Interferon regulatory factor 7, full length, phosphomimetic (IRF7, Homo sapiens, UniProt Q92985, residues 1-503, S101K/S471D/S472D/S475D/S476D/S477D/S483D/S484D/S487D)
Residues (chain): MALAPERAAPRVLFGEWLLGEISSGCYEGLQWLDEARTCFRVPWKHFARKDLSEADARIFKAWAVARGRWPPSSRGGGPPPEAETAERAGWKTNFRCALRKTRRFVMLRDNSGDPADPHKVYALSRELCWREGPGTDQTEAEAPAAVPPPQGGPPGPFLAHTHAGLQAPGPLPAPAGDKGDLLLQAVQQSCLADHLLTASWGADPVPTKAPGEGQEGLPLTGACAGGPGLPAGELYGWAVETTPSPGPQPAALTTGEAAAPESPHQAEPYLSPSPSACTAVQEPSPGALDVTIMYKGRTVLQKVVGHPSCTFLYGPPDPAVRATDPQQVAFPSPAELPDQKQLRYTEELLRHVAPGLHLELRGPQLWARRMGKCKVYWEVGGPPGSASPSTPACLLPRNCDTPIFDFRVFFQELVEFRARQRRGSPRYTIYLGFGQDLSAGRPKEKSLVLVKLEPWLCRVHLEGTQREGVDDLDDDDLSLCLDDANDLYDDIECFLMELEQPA
Sequence | log fluorescence [z-score]
ATATATATCCATTATAGATGGTGCTAG | 0.545
TCAGCATTTTTTTTATCACTGTGCTAG | -0.0676
GACGGTATCGGGTATCGGGAAGTGCTA | 0.402
TTAGAACTGAGACTGGATCAGTGCTAG | -0.0805
GACGGTTTCCTTCTTCTGACGTGCTAG | 2.72
TTAGGTTTGGGTATCGGTTAGTGCTAG | 1.12
GACGATTTCGGGTTTCTAGACGTGCTA | 1.95
TTAGATCTCAGACTGGATTAGTGCTAG | 0.11
TTAGCACTGAGACTGGATTAGTGCTAG | -0.416
TTAGTTATCGACTTTCGGTTAGTGCTA | 2.1
GACGATATCAAACTGGAGACGTGCTAG | -0.219
TTACGTTTCGGTCTCGGTTAGTGCTAG | 4.76
TCAACTTCTCTTTTTGCACTGTGCTAG | 0.727
TTAGGACTGGGGTTGCGGTTAGTGCTA | -0.041
CATGCTCTTATATACCTGTATGTGCTA | 0.415
GACGAACTCGGGTTTCGAGACGTGCTA | 3.37
TTAGGACTGCTTATTCTTTAGTGCTAG | 0.0078
TTAGGACTGGGTCTCCGTTAGTGCTAG | -0.165
TTAGGTATCGACACTGGTTTAGTGCTA | 0.04
TTAGATATCATTTTCGATTAGTGCTAG | 2.83
TCATGTATATATTTTAAACTGTGCTAG | 0.274
GACGGTTTCGGTTCTGGGACGTGCTAG | 12.9
TCAAGTTTCTCCTTTCGACTGTGCTAG | 2.42
GACGGACAGCTTCTCCTGACGTGCTAG | -0.715

Sample 5 — technique: RNA Bind-n-Seq; form: RNA; matrix: in vitro; concentration: not given; relative to: input RNA pool; reading: higher = stronger binding
Target: RING finger protein unkempt homolog, zinc fingers 1-6, GST-SBP tag (UNK, Homo sapiens, UniProt Q9C0B0, residues 30-357)
Chain of UniProt Q9C0B0 (30-357, looked up): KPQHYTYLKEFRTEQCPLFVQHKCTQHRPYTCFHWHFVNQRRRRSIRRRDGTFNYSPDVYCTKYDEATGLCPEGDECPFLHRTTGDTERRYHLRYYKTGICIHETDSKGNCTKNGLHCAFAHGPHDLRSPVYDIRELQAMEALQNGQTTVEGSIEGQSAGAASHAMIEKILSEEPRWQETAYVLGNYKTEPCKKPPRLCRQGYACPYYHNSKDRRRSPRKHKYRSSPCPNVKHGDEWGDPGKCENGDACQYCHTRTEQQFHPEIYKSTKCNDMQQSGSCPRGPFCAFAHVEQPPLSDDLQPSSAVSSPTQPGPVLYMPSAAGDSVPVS
Setting: RNA with constant flanks, human and mouse sites, ends assumed
Shared flanks, not repeated: GGGAGUUCUACAGUCCGACGAUC … CAACAGAGGAUUGAGCAUCA
Sequence | bound/input enrichment [ratio]
AUUAUUAAGAAUAAAGUCACUGGAGAAAGUAAAGGCUUGGGCUACGUGCGCUAUUUAAAACCAUCACAAGCUGCCCAGGCAAUAGAAAACUGUGAUAGAAGUUUCAGAGCACUCUUGGCU | 0.451
UCGCCGACCACCAUGCCCUGCCCGCCGCCGCCCAGCCCCACCAUGGCUGCCGAGGGCGACUGGGCACGCCUGUUGGAGCAGAUGGGUGAGCUGGCCAUGCGGGGCAGCCAGCGGGAGCUG | 0.103
AAAUCGGGCUGAAGCGACUGAGUCCGCGAUGGAGAGAGAAAAGGAACAGUUCCGAAAGCUCUUUAUUGGUGGCUUAAGCUUUGAAACCACAGAAGAAAGUUUGAGAAACUACUAUGAGCA | 0.316
GCUGAUUGCAACCUGCUGCCCAAACUGCAUAUUGUCAAGGUGGUGGCCAAAAAAUAUCGCAACUUUGAUAUUCCAAAAGAAAUGACUGGCAUCUGGAGAUACCUAACUAAUGCAUACAGU | 0.213
GACAGUUGGUAACUAGGUUCUCUGACCUUUGUUCUACAGGCAGAUCCAGCAAACCCUUUGUAGCACUGUAAAUACUUUGGCUUCGAUAAUGUUCUUAUUACUCUAACCAAUCAUAACUGG | 0.114
CUGCAUUAUUUGACCAGAGUUGAAGUGACAGAAUUUGAAGACAUUAAAUCAGGUUACAGAAUAGAUUUUUAUUUUGAUGAAAAUCCUUACUUUGAAAAUAAAGUUCUCUCCAAAGAAUUU | 14
AAGAGCUAACAGAAAACAUUUUGAAAGUGCUCAAAGAACAAGCUGCUGAUUCUAUUUUGGUACUAGAAGCAGCCCUAAAAUUAAACAAGGAUCUUUAUGUCCAUACGAUGAGAACUCUAG | 0.165
CUGAGACUUACCCAGCAGCCAAAGCCCUGGCCUCCAAGUUCUUUGGCCAACAUGGAGGUGAAAGCCAGCAUACCAUCCAUGCCAUGGGACACUGUCACAUUGAUACAGCCUGGCUUUGGC | 0.132
GUGACUAAGUGAUUAGGUAAAGAGUAAGAAAAGACACCAAAAUAAAGUACUGCGGAGGAAUUUCUGUCAAGCUGUGAGACGACGGAGUGAAGAGUGAAGGCGAUUGCGAGGGGCUGAGGG | 0.902
ACAGUUGUGCCACAAGUGCCCACCUCUCCCAAAUCCAGCCUUAGUGUCCAGCCUGGAUUCCUGGCUGACCUCAACAGGACACUGCAACGAAAGUCCAUCACUCGGCACGGCUCACUCUCC | 0.154
CAUUGACCUGUCAUGCCUCGCCUGGAGGCAGCAGCAUUGGGGAUCCCCUCCAUGGGGUUCAUAGAAAUAAGUGCAAUUUUUUUACACCCCUGAAACAAUUUGAAGGGAAGCAGCAUUACU | 1.07

Excerpt of the above (sample 3):
Sequence | E-score
TACCTAGA | -0.202
CCAAGGAG | -0.177
AGGCCCAT | -0.126
ACCTGGAG | -0.181
GTTGTATA | 0.0609
ACCCAATC | -0.155
CGGGACAA | 0.192
CTTACATA | -0.109
TCCATTCA | -0.225
